Results from different studies.
Protocols differ between the studies behind these lines. ± marks the error that the study gave. Bridges are numbered along the chain shown (N, C = ends). Where no end group is shown, it is not given here. Ends that are not written are not given here.
Sequence of UniProt O60656 (whole entry, looked up): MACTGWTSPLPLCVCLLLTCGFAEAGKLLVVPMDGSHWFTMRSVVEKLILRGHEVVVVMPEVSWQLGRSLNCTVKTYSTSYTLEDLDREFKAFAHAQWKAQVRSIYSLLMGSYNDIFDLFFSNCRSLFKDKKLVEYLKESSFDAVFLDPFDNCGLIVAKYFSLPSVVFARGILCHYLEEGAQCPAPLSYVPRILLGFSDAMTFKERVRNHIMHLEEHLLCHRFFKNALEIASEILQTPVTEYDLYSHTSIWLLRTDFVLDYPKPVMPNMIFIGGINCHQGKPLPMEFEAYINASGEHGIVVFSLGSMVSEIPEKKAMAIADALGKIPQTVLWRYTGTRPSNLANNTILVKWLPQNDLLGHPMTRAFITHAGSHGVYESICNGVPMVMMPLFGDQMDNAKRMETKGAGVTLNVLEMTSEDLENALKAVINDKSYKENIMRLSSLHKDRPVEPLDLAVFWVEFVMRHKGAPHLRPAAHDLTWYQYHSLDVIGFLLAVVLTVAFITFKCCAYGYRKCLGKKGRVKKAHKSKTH

Substance	tested on	test	test system	setting	scale	endpoint	result
TMPFLFCNVNDVCNFASRNDYSKKK (99mTc-labelled)		TLC	peptide, saline	8 h, 37 °C		radiochemical purity	> 90%
insulin aspart			healthy subjects, plasma	subcutaneous, 0.2 U/kg, 12 h		AUC(0-t)	8.02 ng·h/mL
insulin		shake-flask	1-octanol/acidified water	3 h		concentration in 1-octanol	3600 ng/mL
NYLAWYQ			peptide, human polyclonal IgM RF MCC	concentration not given, 5 µg/mL mAb II-481 coated, together with: RF at 50% max binding concentration		inhibition	40%
insulin aspart		item: free drug	elderly type 1 diabetes, serum	subcutaneous, 0.2 U/kg, 12 h		AUC(0-t)	0.881 nM·h
insulin icodec			human, type 2 diabetes, serum	subcutaneous, 12, 20, 24 nmol/kg once weekly, 5 weeks, geometric mean		half-life	196 h
CPSSSREKC (disulfide 1-9 (inferred)) (disulfide)		fluorescence imaging	Balb/c mice, nanoparticles	intratracheal, 24 h	reference: initial fluorescence	retention in airways	> 90%
N=C(N)NCCC[C@@H]1NC(=O)[C@H](CSC2CC(=O)N(CCNC(=O)CN3CCN(CC(=O)O)CCN(CC(=O)O)CCN(CC(=O)O)CC3)C2=O)NC(=O)[C@H](CCCCN)NC(=O)[C@@H](Cc2ccc(O)cc2)NC(=O)[C@H](CC(=O)O)NC(=O)CNC1=O (stereo partly drawn) [gallium-68 labelled]			female ICR mouse, blood	intravenous, 5 MBq		distribution half-life	1.11 ± 0.22 min
SQSVLYS			peptide, human polyclonal IgM RF MCC	concentration not given, 5 µg/mL mAb II-481 coated, together with: RF at 50% max binding concentration		inhibition	0%
CC(C)[C@H](NC(=O)[C@@H]1CCCN1C(=O)[C@H](CCCNC(=N)N)NC(=O)[C@H](CS)NC(=O)[C@H](Cc1c[nH]c2ccccc12)NC(=O)[C@H](CCCNC(=N)N)NC(=O)[C@@H](Cc1ccccc1)NC(=O)[C@H](Cc1c[nH]cn1)NC(=O)[C@H](CCC(=O)O)NC(=O)[C@H](CS)NC(=O)[C@H](CS)NC(=O)[C@H](CCCCN)NC(=O)[C@@H]1CC(=O)N[C@@H](CCCNC(=N)N)C(=O)N[C@@H](C)C(=O)N[C@@H](CC(=O)O)C(=O)N[C@H](Cc2ccc(O)cc2)C(=O)N1)C(N)=O [technetium-99m labelled]			C57 mice, tumor	intravenous, 0.037 MBq, 24 h		tissue uptake	9.24 ± 3.63 %ID/g
pegcetacoplan		population PK model	human, GA or nAMD, serum	intravitreal, dose not given		apparent central volume	0.603 log(L)
rnpA F107W (Bacillus subtilis)		NMR, item: His105		25 °C, Na2SO4 20 mM, numbering of the source		pKa	5.52
Insulin human		ELISA	rat, hippocampus	intranasal, 20 µg per nostril, 60 min		concentration	47.2 ± 5.9 pg/mg tissue
CARLSLSWRGLTLCPSK (68Ga-DOTA-labelled)	mouse VAP-1	ex vivo biodistribution	peptide, wild-type mouse, B16 melanoma xenograft, muscle	60 min, together with: 500-fold excess unlabelled DOTA-peptide		uptake	0.03 SUV
insulin lispro			human, plasma	subcutaneous		tmax	46 min
UGT1A9 (Homo sapiens, UniProt O60656)	O=c1cc(-c2ccccc2)oc2cccc(O)c12	steady-state kinetics		pH 7.4, 37 °C		Vmax/Km	123 µL/min/mg
KCNTATCATQRLANFLVHSSNNFGPILPPTNVGSNTY (Pramlintide; not fully specified (C-terminus, bridges); cysteine pairing not given here; sequence looked up)			peptide, obese or overweight humans	dose not given		streptococcal pharyngitis incidence	5.4%
TMPFLFCNVNDVCNFASRNDYSYWLHHHHHH (99mTc-labelled)		TLC	peptide, rat serum	8 h, 37 °C		radiochemical purity	> 90%

Some of these lines once more:
Substance	tested on	test	test system	setting	scale	endpoint	result
Insulin human		ELISA	rat, hippocampus	intranasal, 20 µg per nostril, 60 min		concentration	47.2 ± 5.9 pg/mg tissue
insulin aspart		item: free drug	elderly type 1 diabetes, serum	subcutaneous, 0.2 U/kg, 12 h		AUC(0-t)	0.881 nM·h
